Published values gathered from unrelated publications.
Parts stem from different laboratories: compare values within a part only. Changes are numbered by the printed parent chain.

Sample 1 — effect on: binding; method: phage display NGS; molecule type: peptide; tested at: concentration not given; relative to: input library
Target: UDP-N-acetylglucosamine--peptide N-acetylglucosaminyltransferase 110 kDa subunit (OGT, Homo sapiens, UniProt O15294)
Chain of UniProt O15294 (whole entry, looked up): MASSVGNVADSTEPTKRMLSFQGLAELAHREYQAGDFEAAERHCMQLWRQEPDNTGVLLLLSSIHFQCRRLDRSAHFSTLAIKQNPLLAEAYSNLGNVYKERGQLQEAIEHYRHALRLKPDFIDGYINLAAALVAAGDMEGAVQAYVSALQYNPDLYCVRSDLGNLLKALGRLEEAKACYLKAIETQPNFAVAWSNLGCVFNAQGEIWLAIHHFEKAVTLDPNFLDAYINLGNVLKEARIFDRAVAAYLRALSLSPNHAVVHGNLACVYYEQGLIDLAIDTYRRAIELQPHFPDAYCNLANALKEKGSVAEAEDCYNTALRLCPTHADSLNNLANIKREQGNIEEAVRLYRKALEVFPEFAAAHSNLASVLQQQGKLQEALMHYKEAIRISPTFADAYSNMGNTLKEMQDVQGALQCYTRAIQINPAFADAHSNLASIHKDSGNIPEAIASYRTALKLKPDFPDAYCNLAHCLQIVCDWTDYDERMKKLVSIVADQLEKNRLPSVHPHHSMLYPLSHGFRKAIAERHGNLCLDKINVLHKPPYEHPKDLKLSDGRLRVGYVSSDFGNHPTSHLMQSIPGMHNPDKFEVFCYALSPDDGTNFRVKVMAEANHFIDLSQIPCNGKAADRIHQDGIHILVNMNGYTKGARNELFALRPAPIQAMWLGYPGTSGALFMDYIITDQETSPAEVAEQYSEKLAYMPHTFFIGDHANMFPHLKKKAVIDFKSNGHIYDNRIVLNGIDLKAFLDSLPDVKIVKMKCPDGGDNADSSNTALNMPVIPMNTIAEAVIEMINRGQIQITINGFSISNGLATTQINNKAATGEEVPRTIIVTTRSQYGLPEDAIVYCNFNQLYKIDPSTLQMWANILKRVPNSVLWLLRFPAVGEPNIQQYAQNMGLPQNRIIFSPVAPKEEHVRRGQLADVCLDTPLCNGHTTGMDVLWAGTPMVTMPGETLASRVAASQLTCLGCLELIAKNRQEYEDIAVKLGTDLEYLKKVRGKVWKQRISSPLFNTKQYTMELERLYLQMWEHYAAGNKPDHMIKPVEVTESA
| Sequence | enrichment fold change |
| --- | --- |
| SKSHHTEKFWHYTHV | 8.02 |
| LIARPYQPLYQIIPF | 5.33 |
| TAPFYPPAYAI | 1.12 |
| HIGRHTGPHYYNIVH | 3.81 |
| RMYHNHVTDRHVTQ | 3 |
| VADRFLPIYQLTTRG | 6.03 |
| YAHTHMYNHPAIYTH | 3.42 |
| HGIMQEDHGGTHHHY | 3.08 |

Sample 2 — target: tungstate, free oxyanion; method: microfluidic competitive inhibition; medium: in vitro, cell-free expressed; tested at: not given; reading: lower = stronger binding
Notes: derived from inhibition constants, unchanged parent 2230 nM
Starting sequence: PafA, mature enzyme, eGFP fusion (Elizabethkingia meningoseptica, UniProt Q9KJX5); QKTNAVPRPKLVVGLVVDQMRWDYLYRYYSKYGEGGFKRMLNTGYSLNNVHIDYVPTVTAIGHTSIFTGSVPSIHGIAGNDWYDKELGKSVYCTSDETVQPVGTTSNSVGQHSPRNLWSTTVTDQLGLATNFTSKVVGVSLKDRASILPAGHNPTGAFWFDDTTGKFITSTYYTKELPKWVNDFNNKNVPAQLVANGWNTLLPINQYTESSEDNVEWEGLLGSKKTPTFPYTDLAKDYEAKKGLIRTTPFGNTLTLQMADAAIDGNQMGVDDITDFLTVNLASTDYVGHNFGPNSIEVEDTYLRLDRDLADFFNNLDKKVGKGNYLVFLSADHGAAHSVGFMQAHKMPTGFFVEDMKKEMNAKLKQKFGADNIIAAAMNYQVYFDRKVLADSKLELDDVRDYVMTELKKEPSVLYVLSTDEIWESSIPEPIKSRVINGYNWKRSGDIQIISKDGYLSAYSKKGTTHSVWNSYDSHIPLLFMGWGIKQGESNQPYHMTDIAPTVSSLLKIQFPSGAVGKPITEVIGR
| Substitution | oxyanion analog dissociation constant |
| --- | --- |
| Y459G | 1.79 µM |
| Y238V | 2.31 µM |
| S418G | 2.2 µM |
| R246G | 4.4 µM |
| N4V | 2.18 µM |
| N266V | 2.29 µM |
| Q1V | 1.9 µM |
| M342G | 1.78 µM |

Sample 3 — target: CCNE1, cyclin fold, Cln2 fusion (human); method: yeast growth competition, sequencing; medium: yeast; notes: strong parent motif; relative to: not given; reading: higher = stronger binding; starting sequence: viral docking peptide; KGVKRKLFAEDSS
| Substitution | normalised enrichment score |
| --- | --- |
| KGVKRKLPAEDSS [F8P] | 0.133 |
| KGVKRKLFAEDNS [S12N] | 7.74 |
| KGLKRKLFAEDSS [V3L] | 2.21 |
| KGVKRKLFREDSS [A9R] | 7.48 |
| KGVKVKLFAEDSS [R5V] | 1.61 |
| KVVKRKLFAEDSS [G2V] | 6.42 |
| KGVKRKKFAEDSS [L7K] | 0.261 |
| KGVKRKLFAEFSS [D11F] | 7.07 |

Further values, each from its own experiment
| Structure (SMILES) | target | test | conditions | endpoint | result |
| --- | --- | --- | --- | --- | --- |
| CO[C@@H]1[C@H](OC(=O)NC(=O)CCl)CC[C@]2(CO2)[C@H]1[C@@]1(C)O[C@@H]1CC=C(C)C | chymotrypsin | enzyme activity, inhibitor | 10 µM, with DTT | inhibition | 7.3% |

For quick reference, copied from above (sample 2):
| Substitution | oxyanion analog dissociation constant |
| --- | --- |
| N266V | 2.29 µM |
| Q1V | 1.9 µM |
| M342G | 1.78 µM |
